Measured values pooled from the literature.
A part holds a random share of what one study measured.

Block 1
Target: Histone acetyltransferase KAT6A, both winged helices, GST fusion (KAT6A, Homo sapiens, UniProt Q92794, residues 1-181)
Technique: protein binding microarray
Form: double-stranded DNA, one strand shown
Medium: in vitro
Concentration: not given
Notes: 8-mer, flanks averaged, mean of 2 arrays, mostly near background
Relative to: not given
Reading: higher = stronger binding
Construct (chain): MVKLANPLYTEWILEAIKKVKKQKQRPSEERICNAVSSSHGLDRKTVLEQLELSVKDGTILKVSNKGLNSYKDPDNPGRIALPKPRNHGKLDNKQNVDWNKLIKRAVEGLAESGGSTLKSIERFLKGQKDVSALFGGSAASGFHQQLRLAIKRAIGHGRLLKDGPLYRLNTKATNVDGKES
| Sequence | E-score |
| --- | --- |
| GCTCCTGA | 0.00254 |
| CGTGGAAA | 0.138 |
| AGGGAGCC | -0.0199 |
| TCGCGAGA | 0.21 |
| GCCACGAC | -0.058 |
| AAATTTTG | 0.0223 |
| AGGTATAA | -0.0628 |
| CTTGCAAG | 0.0974 |
| AGCTGGTG | -0.141 |
| CGGTGGAC | -0.027 |
| CGAGCTGA | -0.0645 |
| CTAGCTCC | -0.0103 |
| GGCAACAC | -0.00358 |
| CCTAACTC | -0.0463 |
| AGGGTAAC | -0.078 |
| GAGAGGGA | -0.152 |
| AGAACCGA | -0.00089 |
| ACAGGTCA | -0.0927 |
| CCAGAGTA | 0.0212 |
| AAGAACTT | -0.0418 |
| ATGCTGTC | -0.09 |
| TCTAGTAA | 0.103 |
| CTCGTGCA | 0.0139 |
| CGGTGCGA | 0.212 |
| ACCTAATA | -0.0613 |

Block 2
Target: Sal-like protein 4, full length isoform B (SALL4, Homo sapiens, UniProt Q9UJQ4-2, residues 1-616)
Technique: universal PBM
Form: double-stranded DNA, one strand shown
Medium: in vitro
Concentration: not given
Notes: 8-mer, flanks averaged, mean of replicates
Reading: higher = stronger binding
| Sequence | E-score |
| --- | --- |
| CTACTCCA | -0.0551 |
| AGTTGATA | 0.228 |
| GGTATACC | -0.0975 |
| CCCGAGGG | -0.286 |
| GAATGAGA | -0.0138 |
| CCCCTGTA | -0.0453 |
| CGGATTTC | -0.195 |
| CGGGCGTA | -0.274 |
| GGTACGCA | 0.0148 |
| CAGTTATG | 0.27 |
| ACCGCGGT | -0.223 |
| CCTTGATC | -0.0853 |
| AATCAGGG | -0.047 |
| AACCAGGA | -0.0854 |
| AACCTCTT | 0.182 |
| AGTTGAGG | -0.0652 |
| ATCCAGAG | 0.0147 |
| AAGCATTG | -0.0513 |
| ATACCTTA | 0.257 |
| ACGGACTA | 0.0519 |
| ATTACTTC | 0.237 |
| AAACAGGC | -0.13 |
| AAGCCTCA | -0.191 |
| ACGCTTCA | 0.0124 |
| AGTGTAAC | 0.00414 |

Block 3
Target: Hepatocyte nuclear factor 3-alpha (Foxa1, Mus musculus, UniProt P35582, residues 1-468, full length assumed)
UniProt P35582, sequence (whole entry, looked up): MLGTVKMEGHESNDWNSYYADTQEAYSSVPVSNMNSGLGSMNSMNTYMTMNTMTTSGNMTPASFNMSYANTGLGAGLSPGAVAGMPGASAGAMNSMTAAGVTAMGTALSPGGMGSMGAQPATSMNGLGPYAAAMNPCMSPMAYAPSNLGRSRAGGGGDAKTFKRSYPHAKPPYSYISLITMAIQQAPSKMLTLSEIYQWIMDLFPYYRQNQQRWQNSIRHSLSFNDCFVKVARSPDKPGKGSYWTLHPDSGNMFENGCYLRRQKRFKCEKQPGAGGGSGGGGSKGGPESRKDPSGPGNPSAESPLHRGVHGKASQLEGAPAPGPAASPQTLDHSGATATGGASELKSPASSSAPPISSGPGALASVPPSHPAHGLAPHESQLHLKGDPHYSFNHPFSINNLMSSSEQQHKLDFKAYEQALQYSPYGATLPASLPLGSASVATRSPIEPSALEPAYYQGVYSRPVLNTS
Technique: EMSA with sequencing
Form: double-stranded DNA, one strand shown
Medium: in vitro
Concentration: 10 and 20 nM
Notes: whole designed probe, mean of two concentrations, ends assumed
Relative to: negative control set to 0
Reading: higher = stronger binding
| Sequence | normalised bound fraction |
| --- | --- |
| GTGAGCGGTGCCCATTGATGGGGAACTCCTCTGACAGATCAAATTATTAAATTCTGCTTGGGGAAGGTATGGGGCACTCCTCTTGGTTGAAGCAATGCTGTACTTTTTATTCCTGCTGAGTAATTTGCCTCAAGTCAAACTACTTGCCCTAACTAATGATCAAACATATCCAGGAATTCTGTACAAGAAATGCATTCTGCTCTCCTTTGAAGTGCATTGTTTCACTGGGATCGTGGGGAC | -0.00106 ratio |
| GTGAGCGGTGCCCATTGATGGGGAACCCTTGTTATTTGCAGGTATCCAAATGTCTGCATGTGGGAGCATTCCTTGTGGATTAGGGTGTTAGTGTCTAGGAGTCTCCTCTTTTATGAAATGCAAACATTCTTTGAGCACAATTGCAACATCAGCTGTGATATTTACCTAAATGTTTCCCAAGGATAAGTGGCTTACGTCAGAGCCCTGAGGCTACAGGATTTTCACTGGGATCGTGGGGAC | 0.361 ratio |
| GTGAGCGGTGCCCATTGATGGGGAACATCTTCCCCCTCTTCCTTGCCCCACCAGCTCACCTTCCCGGGTTATTTGCAGATAGGAAAATAAATAAAGCCGGCATTCGTTAACCCTCTTCACGCGCATACTGCTGTTTGCTCTGGATCTAACATGGGATGAATCATGCGCCAGGCTCCGGGAGAGCAAAGCACCGTGTCAGGGCCATGATCCGGGGTGGCCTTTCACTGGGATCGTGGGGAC | 0.364 ratio |
| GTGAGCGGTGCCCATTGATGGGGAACCACAGAGTTCAAAGTTGGCTGAGAAAATATACCAGTTGTCCTTGAAACATTCACTGTATTTGATGGCTATCTTTTCTCTAAACATATTGTAATGCAATTTTAAAATTGTTTTGTTTTATAAAACAATAGAATACATCAGCTGAAGTTACCCCCAAAAGAAATGAAAGAAACTTCTGGGTGTGCCCTCAAAATTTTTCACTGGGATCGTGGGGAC | -0.00691 ratio |
| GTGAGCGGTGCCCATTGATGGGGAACTGATGATACGTTATAGCATTTCTCTGCTCTGTAAGAGAGGCACCAGGGTCGTGTGCTGGGTCTCACATCCGGTGGGGTTTGTCCATTCGCTGCTGTTGACTCTGGTGTCGGCCGCTGGTGAGCTGGCTGTAGCTGGTCACCTCTGGGTGGTTTCTGGGGCGGTCGCAGGCTGACTAACACACCAAAGGTCAGCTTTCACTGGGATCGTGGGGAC | 0.0126 ratio |
| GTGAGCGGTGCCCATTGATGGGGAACCATTAGTTCATGCCAGGCAGGGTTTGACCAAAACCTTGGACTCACTCCTGTCTGCTTTCCTTCAGTGACTAAGAGGATTCCTGAGATGGATGTGCAAACATGAAGTGTTTACTTTCCTCCATGGGAATGTACTTCTGGCTTCCACTCCTCAGCTGCTGCTGCTAAGCCAGTGAGATAGATGGTGGTTTGGAAATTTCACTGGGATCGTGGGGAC | 0.402 ratio |
| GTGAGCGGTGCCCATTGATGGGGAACCTGCACCACTCAGCCCCTCCTAGTCCGCTGGAGAAAGTGGCTGAGGGGGTGGTGGGGGATAATTGCATTTCCAAAGTCCGGGCAATCAGCCAATGTAATCTGGCACCTGCGTCACTGTGTGGGCTCTCTAGGCAACAGGTAAAATACATCAAATACACACAATTTCCTGACATTCCAATGCATTTCTGCGTGATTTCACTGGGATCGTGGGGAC | 0.00729 ratio |
| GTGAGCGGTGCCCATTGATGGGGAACCACTCGGCTCCCCAGAGGTCAGCGCACCCCAAGCCCAGAGGCCGGCTGGCCTCGGGAGCTCTCACTCCACTATCTTCCCTCCTCCCTGAACTCTGTTTACACAAGGCTGGTCTTGGCTCTGAGGCTGCTAGATTTTAAATGCAATCTCACTGGTGACTCACTGGTGCATCGTCATTTGGCTTTGCCTGGAATTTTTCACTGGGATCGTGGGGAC | 0.482 ratio |

Block 4
Target: Max dimerization protein 1, bHLH-zipper, MAX partner unstated (MXD1, Homo sapiens, UniProt Q05195, residues 56-136)
Technique: protein-binding microarray
Form: double-stranded DNA, one strand shown
Medium: in vitro
Concentration: not given
Notes: k-mer, scored over probes, only values ≥0.25
Reading: higher = stronger binding
Construct (chain): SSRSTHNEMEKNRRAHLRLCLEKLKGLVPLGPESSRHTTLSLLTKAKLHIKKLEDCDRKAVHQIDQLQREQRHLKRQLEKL
| Sequence | E-score |
| --- | --- |
| GTGTGGGA | 0.284 |
| AACGTGCG | 0.419 |
| CGGCATGA | 0.26 |
| AGACCATG | 0.289 |
| CCCCGTCC | 0.293 |
| AAACACGT | 0.371 |
| AACGTGCA | 0.383 |
| CCGCCACG | 0.343 |
| CCATGCGC | 0.424 |
| CCCGACCC | 0.311 |
| ACCCCCGT | 0.251 |
| ACACGCGA | 0.405 |
| CGGGCACG | 0.269 |
| AGCGTGGA | 0.318 |
| CATGTTTA | 0.399 |
| GTGGGACA | 0.312 |
| ACGTGGTA | 0.419 |
| CGTGTTGC | 0.297 |
| AACGTGGA | 0.353 |
| CCCGTGTA | 0.283 |
| CCCGCCGC | 0.279 |
| CATGAGGG | 0.387 |
| ATGGGGGG | 0.365 |
| GGCATGCA | 0.302 |
| CGTGCCCC | 0.379 |

Block 5
Target: RNA binding protein fox-1 homolog 2, RRM domain, GST-SBP tag (RBFOX2, Homo sapiens, UniProt O43251-10, residues 100-194)
Technique: RNA Bind-n-Seq
Form: RNA
Medium: in vitro
Concentration: 365 nM
Notes: natural RNA segment, single round, ends assumed
Relative to: no-protein control
Reading: higher = stronger binding
Residues (chain): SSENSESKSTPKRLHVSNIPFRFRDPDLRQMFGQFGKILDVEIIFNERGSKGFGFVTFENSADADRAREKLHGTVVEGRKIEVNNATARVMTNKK
| Sequence | RBNS enrichment (R) |
| --- | --- |
| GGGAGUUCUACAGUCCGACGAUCGCUAGAACCCUAGGGUCCCUGCUGAGUUCCACAGGGGUGGCCAUCACACACCUGUAUCCCUGGUAUCUAAGGCCUGUCCUCUAGUGCGAUUGUCAUCUCCAGGACUAUGAUGGAAUUCUCGGGUGCCAA | 0.211 |
| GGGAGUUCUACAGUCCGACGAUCUCCUUCAGCAGACAAAGUCAAGCAGCUUUAAGUACAAGGCAGCUUGAAACCUCUCUGAUGAAAGUGAAAAAUGUGGGUAGCUUAUACUUUCAAACUAAUGCCAGUGACUAUGGAAUUCUCGGGUGCCAA | 0.433 |
| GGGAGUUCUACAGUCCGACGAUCCCUUAGCAGCUCAGUAGAUUCUUCAGGAUAACAGUAAAUGGCUUAUUGUAACUUGAAACACUAUAUUUUGUCUUUCCUGUGAGUAGCUCUAAGUUUGAGAGAAACCACUCUGGAAUUCUCGGGUGCCAA | 0.372 |
| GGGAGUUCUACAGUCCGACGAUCCAAAUGUAAGUCUUGGAGAAGGGUCCUUCAUGGUGUCCACAUGUGCAGGCUCAGGUAGAGGUCUCAGUGAGUGGACACAGGUAGCUGUGGGUGCCGAGAAAGGAUCUGCCUGGAAUUCUCGGGUGCCAA | 6.76 |
| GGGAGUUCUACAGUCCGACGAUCCGGGAGAAACAGCCCAAACCACAGGAAGCAACAGAAACUGGAGAACCGCCACCUUUAGAAUUUCCAACACUCAGGCUCUGCCCGUCGGCUUGGCUGCAGGACAGAGACUUUGGAAUUCUCGGGUGCCAA | 0.322 |
| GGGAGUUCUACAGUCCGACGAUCAAUUUAAUGCCCUAACUCUCUUAUUAAGGAGAAAUAGAAAAGAAGAAAUUUAUAAUGAAAAGAAGAUGAAUUUCAUUAUGUAAACGCUCAGGCAUGACUACGCUGUUUGAUGGAAUUCUCGGGUGCCAA | 0.699 |
| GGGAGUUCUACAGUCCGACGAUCACUUUACCAGCCCCUGAGAGGACCAGGAGGAGCAUCCUUGACCUUCAUUUAACUUGGCUCACUUCUCUUCAGACUUGGGUAGAAGUGCAGAGCCACAGAAUUGCUUUCCUUGGAAUUCUCGGGUGCCAA | 0.431 |
| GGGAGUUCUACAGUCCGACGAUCGGUUGACAUUUGAUGACAGGAAGCAAUCAUGACUCUUCAAGUGAGCUCACAGAAACCUUUCAUGUUGUCUGUUUCCAAAAUGGAUUCAAUAAACAACAUUUUGUCCAUGUUGGAAUUCUCGGGUGCCAA | 0.309 |
| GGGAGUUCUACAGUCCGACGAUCUUAAGGGCACACAGCUAAUAAGUAAUAGGCCUAAACUGGAUUUCCUUAUUCCAAAUCCUGUCUUUUCCCCACUAUUCCAUUAGACCCCACAAAUGUUAGUUGUGUGUGUGUGGAAUUCUCGGGUGCCAA | 0.365 |
| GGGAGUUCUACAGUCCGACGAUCUUCCAGGAAAGAGGCCAUCUCUUGGGGGUUUCAGCCAUCUUACCCAGUGUCUGGACUGCUAUAUUGGGUUGGGGGCUGGUUCUGGAACUCAGUCUGCGCCUCUAUAGGUUUGGAAUUCUCGGGUGCCAA | 0.389 |
| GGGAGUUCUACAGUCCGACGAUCGAAGCUUUCAGUGCUGCUGUUUGGCCCAGCUCAUUACUUUCUCCCUUUCUCUACCACAGCAAACACAUUCUCCACCAUGUCAGUCUAAAGAGUCUAAAGGGGCCGGGAGAUGGAAUUCUCGGGUGCCAA | 0.478 |
| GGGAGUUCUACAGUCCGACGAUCCUCCUGCCCAUGAGGAUCACAUCCUGUCUCUCCUUGCUUCCAUCUCUCAUCACUGCCCUUGGACUUCCGCCUUGACUGUCCAUGAAAGACAGAAAUGGGUUGGGUAGUUGUGGAAUUCUCGGGUGCCAA | 0.42 |

For quick reference, copied from above (block 4):
| Sequence | E-score |
| --- | --- |
| AACGTGCG | 0.419 |
| CGGCATGA | 0.26 |
| AGACCATG | 0.289 |
| CCCCGTCC | 0.293 |
| AAACACGT | 0.371 |
| AACGTGCA | 0.383 |
| CCGCCACG | 0.343 |
| CCATGCGC | 0.424 |
| CCCGACCC | 0.311 |
| ACCCCCGT | 0.251 |
| ACACGCGA | 0.405 |
| CGGGCACG | 0.269 |
| AGCGTGGA | 0.318 |
| CATGTTTA | 0.399 |
